Measured values pooled from the literature.
Compare with care: the assays were run in different laboratories. Numbers after ± are the reported error.

| SMILES | cell line | assay | setting | how to read | quantity | result |
| --- | --- | --- | --- | --- | --- | --- |
| CC(C)(C)C(=O)OCOP(=O)(OCOC(=O)C(C)(C)C)C1CCCN(O)C1=O (stereo not shown) | MDA-MB-231 | – | – | – | Log10TGI | -4.7 log M |
| CC1CCC2C(C)C(OC(=O)CCC(=O)N3CCC(Nc4ccc(S(=O)(=O)NC(=O)c5ccc(N6CCN(CC7=C(c8ccc(Cl)cc8)CC(C)(C)CC7)CC6)cc5Oc5cnc6[nH]ccc6c5)cc4[N+](=O)[O-])CC3)OC3OC4(C)CCC1C32OO4 (stereo not shown) | THP-1 | NOXA induction, western blot, measured: NOXA | 24 h | – | effective concentration | 0.2 µM |
| O=C(C[Se]C(=O)c1cccs1)Nc1cccc(C(F)(F)F)c1 | NCI60 colon subpanel | cell growth | 10 µM, 48 h, one-dose | – | mean growth percent | -52.9% |
| CCCNC(=O)[C@H]1O[C@@H]1C(=O)N[C@H](C(=O)N1CCC[C@H]1C(=O)OCC1=C2C(C)=CC(C)=[N+]2[B-](C)(C)n2c(C)cc(C)c21)[C@@H](C)CC | MDA-MB-231 | – | 4 h | reference: dark EC50 over light EC50 | phototoxicity index | > 40 |
| CSCC[C@H](NC(=O)[C@@H](NC(=O)[C@H](CCC(N)=O)NC(=O)[C@H](CO)NC(=O)[C@@H](N)C(C)C)[C@@H](C)O)C(=O)N[C@@H](CCCNC(=N)N)C(=O)N[C@@H](CCC(N)=O)C(=O)N[C@H](C(=O)N[C@@H](C)C(=O)N[C@H](C(=O)N1CCC[C@H]1C(=O)N[C@@H](CC(C)C)C(=O)N[C@@H](CC(C)C)C(=O)N[C@@H](Cc1c[nH]c2ccccc12)C(=O)N[C@@H](Cc1ccccc1)C(=O)N[C@@H](Cc1c[nH]c2ccccc12)C(=O)N[C@H](C(=O)NCC(=O)N[C@@H](CO)C(=O)N[C@@H](CC(C)C)C(=O)NCCOCCOCCOCCOCCOCCOCCOCCOCCOCCOCCOCCOCCC(=O)N[C@@H](CS)C(N)=O)[C@@H](C)O)C(C)C)[C@@H](C)O | H1975 lung adenocarcinoma | cell binding, phage binding, measured: output/input phage | 10 min, 37 °C | reference: control phage | selectivity ratio | 0.39 ± 0.16 |
| Cc1cc(Oc2nc(N3CC[C@@H](c4ccncc4)C3)ncc2F)[nH]n1 | U-87 MG | cell proliferation | – | – | IC50 | > 100 µM |
| CC(=O)NCSC[C@H](NC(=O)[C@@H]1CCCN1C(=O)[C@H](C)NC(=O)[C@@H](NC(=O)CNC(=O)[C@@H](NC(=O)[C@H](Cc1c[nH]c2ccccc12)NC(=O)[C@H](C)NC(=O)CNC(=O)[C@H](CO)NC(=O)[C@H](C)NC(=O)[C@@H]1CCCN1C(=O)[C@H](Cc1c[nH]c2ccccc12)NC(=O)[C@H](C)NC(=O)[C@H](C)NC(=O)[C@@H](N)Cc1ccc(O)cc1)[C@@H](C)O)[C@@H](C)O)C(=O)N[C@@H](CO)C(=O)N[C@@H](C)C(=O)NCC(=O)N[C@H](C(=O)NCCOCCOCCOCCOCCOCCOCCOCCOCCOCCOCCOCCOCCC(=O)N[C@@H](CS)C(N)=O)[C@@H](C)O | H1975 lung adenocarcinoma | cell binding, phage binding, measured: output/input phage | 10 min, 37 °C | reference: control phage | selectivity ratio | 0.57 ± 0.25 |
| O=C(C[Se]C(=O)c1cc2ccccc2o1)Nc1cccc(C(F)(F)F)c1 | NCI60 colon subpanel | NCI60 five-dose screen | – | – | CC50 | 18.6 µM |
| CSCC[C@H](N)C(=O)N[C@@H](C)C(=O)N[C@@H](Cc1c[nH]c2ccccc12)C(=O)N[C@@H](Cc1c[nH]cn1)C(=O)N[C@@H](CC(=O)O)C(=O)N[C@@H](CC(=O)O)C(=O)N[C@@H](CCC(=O)O)C(=O)N[C@@H](CCC(=O)O)C(=O)N[C@@H](Cc1ccccc1)C(=O)N[C@@H](C)C(=O)N[C@@H](CCCNC(=N)N)C(=O)N[C@@H](CCCNC(=N)N)C(=O)N[C@@H](CCCNC(=N)N)C(=O)N[C@@H](CCCNC(=N)N)C(=O)NCCCCCC(=O)NCCCCC(NC(=O)CCCCCNC(=O)[C@H](CCCNC(=N)N)NC(=O)[C@H](CCCNC(=N)N)NC(=O)[C@H](CCCNC(=N)N)NC(=O)[C@H](CCCNC(=N)N)NC(=O)[C@H](C)NC(=O)[C@H](Cc1ccccc1)NC(=O)[C@H](CCC(=O)O)NC(=O)[C@H](CCC(=O)O)NC(=O)[C@H](CC(=O)O)NC(=O)[C@H](CC(=O)O)NC(=O)[C@H](Cc1c[nH]cn1)NC(=O)[C@H](Cc1c[nH]c2ccccc12)NC(=O)[C@H](C)NC(=O)[C@@H](N)CCSC)C(=O)NCCCCC(NC(=O)C(CCCCNC(=O)CCCCCNC(=O)[C@H](CCCNC(=N)N)NC(=O)[C@H](CCCNC(=N)N)NC(=O)[C@H](CCCNC(=N)N)NC(=O)[C@H](CCCNC(=N)N)NC(=O)[C@H](C)NC(=O)[C@H](Cc1ccccc1)NC(=O)[C@H](CCC(=O)O)NC(=O)[C@H](CCC(=O)O)NC(=O)[C@H](CC(=O)O)NC(=O)[C@H](CC(=O)O)NC(=O)[C@H](Cc1c[nH]cn1)NC(=O)[C@H](Cc1c[nH]c2ccccc12)NC(=O)[C@H](C)NC(=O)[C@@H](N)CCSC)NC(=O)CCCCCNC(=O)[C@H](CCCNC(=N)N)NC(=O)[C@H](CCCNC(=N)N)NC(=O)[C@H](CCCNC(=N)N)NC(=O)[C@H](CCCNC(=N)N)NC(=O)[C@H](C)NC(=O)[C@H](Cc1ccccc1)NC(=O)[C@H](CCC(=O)O)NC(=O)[C@H](CCC(=O)O)NC(=O)[C@H](CC(=O)O)NC(=O)[C@H](CC(=O)O)NC(=O)[C@H](Cc1c[nH]cn1)NC(=O)[C@H](Cc1c[nH]c2ccccc12)NC(=O)[C@H](C)NC(=O)[C@@H](N)CCSC)C(N)=O (stereo partly shown) | mouse C57BL/6 BMMs | – | 1.0 µM, 3 days, added: RANKL | reference: untreated control | osteoclast formation | 27% |
| COc1ccccc1-c1ccncc1C(=O)Nc1nnc(OCc2ccc(Cl)cc2)s1 | DLD-1 parental (BRCA2 WT) | – | 2 µM, average of 3 runs | reference: untreated | colony survival | 96.9% |

For quick reference, copied from above:
| SMILES | cell line | assay | setting | how to read | quantity | result |
| --- | --- | --- | --- | --- | --- | --- |
| CC(=O)NCSC[C@H](NC(=O)[C@@H]1CCCN1C(=O)[C@H](C)NC(=O)[C@@H](NC(=O)CNC(=O)[C@@H](NC(=O)[C@H](Cc1c[nH]c2ccccc12)NC(=O)[C@H](C)NC(=O)CNC(=O)[C@H](CO)NC(=O)[C@H](C)NC(=O)[C@@H]1CCCN1C(=O)[C@H](Cc1c[nH]c2ccccc12)NC(=O)[C@H](C)NC(=O)[C@H](C)NC(=O)[C@@H](N)Cc1ccc(O)cc1)[C@@H](C)O)[C@@H](C)O)C(=O)N[C@@H](CO)C(=O)N[C@@H](C)C(=O)NCC(=O)N[C@H](C(=O)NCCOCCOCCOCCOCCOCCOCCOCCOCCOCCOCCOCCOCCC(=O)N[C@@H](CS)C(N)=O)[C@@H](C)O | H1975 lung adenocarcinoma | cell binding, phage binding, measured: output/input phage | 10 min, 37 °C | reference: control phage | selectivity ratio | 0.57 ± 0.25 |
